Measured values pooled from the literature.
Parts stem from different laboratories: compare values within a part only.
Sequence of UniProt Q7KZI7 (whole entry, looked up): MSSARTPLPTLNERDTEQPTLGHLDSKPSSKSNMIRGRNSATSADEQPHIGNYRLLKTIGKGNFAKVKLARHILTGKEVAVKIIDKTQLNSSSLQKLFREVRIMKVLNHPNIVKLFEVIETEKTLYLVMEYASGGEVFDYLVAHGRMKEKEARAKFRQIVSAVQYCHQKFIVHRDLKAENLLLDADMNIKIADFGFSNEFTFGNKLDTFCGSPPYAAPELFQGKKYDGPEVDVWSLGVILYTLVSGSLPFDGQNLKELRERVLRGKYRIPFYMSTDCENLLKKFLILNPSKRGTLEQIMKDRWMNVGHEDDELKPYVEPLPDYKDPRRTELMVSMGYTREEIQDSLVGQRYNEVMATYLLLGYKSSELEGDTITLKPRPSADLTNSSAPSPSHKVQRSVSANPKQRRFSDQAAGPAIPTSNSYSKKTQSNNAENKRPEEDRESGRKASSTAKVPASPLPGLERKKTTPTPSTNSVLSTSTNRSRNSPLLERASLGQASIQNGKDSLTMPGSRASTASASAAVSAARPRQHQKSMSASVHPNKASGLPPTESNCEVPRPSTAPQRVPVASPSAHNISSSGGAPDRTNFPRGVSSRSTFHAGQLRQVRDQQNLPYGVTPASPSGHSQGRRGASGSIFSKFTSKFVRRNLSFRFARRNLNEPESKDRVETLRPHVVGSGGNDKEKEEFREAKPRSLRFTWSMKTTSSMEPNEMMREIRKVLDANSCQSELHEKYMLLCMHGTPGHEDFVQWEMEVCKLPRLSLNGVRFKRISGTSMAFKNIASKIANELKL
Sequence of UniProt Q15139 (whole entry, looked up): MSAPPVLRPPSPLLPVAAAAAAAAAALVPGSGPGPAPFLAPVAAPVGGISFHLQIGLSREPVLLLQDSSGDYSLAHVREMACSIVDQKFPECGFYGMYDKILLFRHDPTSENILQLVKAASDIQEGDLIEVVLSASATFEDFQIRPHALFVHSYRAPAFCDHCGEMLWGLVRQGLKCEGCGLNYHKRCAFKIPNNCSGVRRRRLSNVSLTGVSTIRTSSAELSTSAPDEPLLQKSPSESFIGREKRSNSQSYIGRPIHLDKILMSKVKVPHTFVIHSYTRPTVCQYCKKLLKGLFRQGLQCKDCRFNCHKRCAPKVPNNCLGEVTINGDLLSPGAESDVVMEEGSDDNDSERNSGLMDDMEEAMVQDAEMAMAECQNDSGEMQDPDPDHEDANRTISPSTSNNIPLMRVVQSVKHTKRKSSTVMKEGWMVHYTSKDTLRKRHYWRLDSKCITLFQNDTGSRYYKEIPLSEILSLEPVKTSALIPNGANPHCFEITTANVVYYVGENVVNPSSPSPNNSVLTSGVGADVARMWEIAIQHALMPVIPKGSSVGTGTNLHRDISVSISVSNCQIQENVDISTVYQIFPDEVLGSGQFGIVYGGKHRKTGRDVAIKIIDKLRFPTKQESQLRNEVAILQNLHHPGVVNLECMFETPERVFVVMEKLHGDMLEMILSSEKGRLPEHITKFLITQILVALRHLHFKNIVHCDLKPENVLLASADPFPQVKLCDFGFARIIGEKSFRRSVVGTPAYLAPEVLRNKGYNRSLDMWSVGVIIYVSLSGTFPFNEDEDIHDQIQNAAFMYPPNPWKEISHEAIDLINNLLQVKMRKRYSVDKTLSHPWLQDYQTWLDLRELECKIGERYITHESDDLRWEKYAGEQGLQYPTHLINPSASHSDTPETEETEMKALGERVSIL
Sequence of UniProt Q8NEV4 (whole entry, looked up): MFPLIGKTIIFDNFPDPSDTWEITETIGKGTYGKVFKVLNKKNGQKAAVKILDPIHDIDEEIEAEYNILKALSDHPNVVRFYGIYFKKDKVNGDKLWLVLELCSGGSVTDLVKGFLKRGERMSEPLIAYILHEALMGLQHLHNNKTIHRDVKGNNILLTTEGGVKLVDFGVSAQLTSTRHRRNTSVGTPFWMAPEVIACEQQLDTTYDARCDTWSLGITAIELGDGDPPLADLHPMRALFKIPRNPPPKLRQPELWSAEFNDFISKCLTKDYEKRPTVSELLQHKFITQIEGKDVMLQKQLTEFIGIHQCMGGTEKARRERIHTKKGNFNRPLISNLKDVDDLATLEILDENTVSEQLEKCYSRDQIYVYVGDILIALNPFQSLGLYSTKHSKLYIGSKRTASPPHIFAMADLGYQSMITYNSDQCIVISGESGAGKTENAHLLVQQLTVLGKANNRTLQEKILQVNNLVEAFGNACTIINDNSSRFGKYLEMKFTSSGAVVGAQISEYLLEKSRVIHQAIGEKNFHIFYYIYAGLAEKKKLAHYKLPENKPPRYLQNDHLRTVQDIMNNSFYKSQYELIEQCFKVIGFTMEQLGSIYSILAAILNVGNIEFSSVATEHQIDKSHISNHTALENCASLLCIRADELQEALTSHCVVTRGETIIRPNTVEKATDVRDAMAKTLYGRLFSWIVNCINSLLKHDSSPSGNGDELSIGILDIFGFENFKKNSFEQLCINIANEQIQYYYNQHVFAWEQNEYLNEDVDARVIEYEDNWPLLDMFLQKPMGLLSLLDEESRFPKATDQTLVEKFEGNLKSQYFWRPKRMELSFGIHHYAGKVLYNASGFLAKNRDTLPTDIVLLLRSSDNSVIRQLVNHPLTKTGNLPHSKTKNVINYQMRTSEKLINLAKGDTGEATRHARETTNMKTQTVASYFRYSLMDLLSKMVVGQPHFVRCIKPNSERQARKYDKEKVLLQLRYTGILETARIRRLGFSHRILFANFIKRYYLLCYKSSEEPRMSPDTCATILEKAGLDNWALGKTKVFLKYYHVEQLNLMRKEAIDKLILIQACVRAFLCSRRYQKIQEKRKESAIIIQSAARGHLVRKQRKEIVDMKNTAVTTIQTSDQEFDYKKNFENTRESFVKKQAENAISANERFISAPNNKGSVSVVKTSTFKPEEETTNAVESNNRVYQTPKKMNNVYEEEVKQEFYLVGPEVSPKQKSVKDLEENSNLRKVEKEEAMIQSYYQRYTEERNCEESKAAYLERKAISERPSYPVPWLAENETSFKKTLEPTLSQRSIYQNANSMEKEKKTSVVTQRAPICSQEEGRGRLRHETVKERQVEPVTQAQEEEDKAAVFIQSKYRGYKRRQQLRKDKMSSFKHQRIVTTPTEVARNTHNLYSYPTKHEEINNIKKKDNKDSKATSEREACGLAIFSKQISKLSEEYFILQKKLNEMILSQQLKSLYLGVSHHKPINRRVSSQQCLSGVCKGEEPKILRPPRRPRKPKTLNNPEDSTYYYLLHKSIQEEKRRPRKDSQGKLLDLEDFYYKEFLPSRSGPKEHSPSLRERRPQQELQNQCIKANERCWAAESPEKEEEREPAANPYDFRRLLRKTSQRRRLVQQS
Sequence of UniProt Q16539 (whole entry, looked up): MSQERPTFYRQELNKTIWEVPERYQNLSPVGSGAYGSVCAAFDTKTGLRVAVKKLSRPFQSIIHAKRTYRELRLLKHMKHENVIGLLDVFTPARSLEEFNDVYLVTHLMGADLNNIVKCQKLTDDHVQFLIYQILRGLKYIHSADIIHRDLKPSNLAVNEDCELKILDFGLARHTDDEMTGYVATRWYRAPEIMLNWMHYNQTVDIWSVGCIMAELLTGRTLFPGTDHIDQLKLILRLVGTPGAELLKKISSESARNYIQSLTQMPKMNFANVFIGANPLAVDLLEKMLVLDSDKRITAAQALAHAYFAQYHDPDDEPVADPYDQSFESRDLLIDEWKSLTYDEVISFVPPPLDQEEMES
Sequence of UniProt O75914 (whole entry, looked up): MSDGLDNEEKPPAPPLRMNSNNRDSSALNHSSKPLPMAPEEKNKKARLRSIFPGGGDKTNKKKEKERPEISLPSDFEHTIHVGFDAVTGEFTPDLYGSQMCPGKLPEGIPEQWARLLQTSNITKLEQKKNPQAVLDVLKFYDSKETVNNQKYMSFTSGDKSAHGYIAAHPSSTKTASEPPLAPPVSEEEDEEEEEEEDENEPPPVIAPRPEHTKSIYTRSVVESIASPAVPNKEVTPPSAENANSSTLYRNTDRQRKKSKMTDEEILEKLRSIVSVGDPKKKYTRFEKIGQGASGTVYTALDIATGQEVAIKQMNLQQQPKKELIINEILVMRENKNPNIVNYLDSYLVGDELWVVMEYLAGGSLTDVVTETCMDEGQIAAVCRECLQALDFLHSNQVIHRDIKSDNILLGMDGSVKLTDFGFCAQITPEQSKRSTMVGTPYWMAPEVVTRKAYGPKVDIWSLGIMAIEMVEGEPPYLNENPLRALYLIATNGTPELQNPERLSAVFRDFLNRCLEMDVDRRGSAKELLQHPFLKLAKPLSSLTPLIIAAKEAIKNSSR
Sequence of UniProt P31751 (whole entry, looked up): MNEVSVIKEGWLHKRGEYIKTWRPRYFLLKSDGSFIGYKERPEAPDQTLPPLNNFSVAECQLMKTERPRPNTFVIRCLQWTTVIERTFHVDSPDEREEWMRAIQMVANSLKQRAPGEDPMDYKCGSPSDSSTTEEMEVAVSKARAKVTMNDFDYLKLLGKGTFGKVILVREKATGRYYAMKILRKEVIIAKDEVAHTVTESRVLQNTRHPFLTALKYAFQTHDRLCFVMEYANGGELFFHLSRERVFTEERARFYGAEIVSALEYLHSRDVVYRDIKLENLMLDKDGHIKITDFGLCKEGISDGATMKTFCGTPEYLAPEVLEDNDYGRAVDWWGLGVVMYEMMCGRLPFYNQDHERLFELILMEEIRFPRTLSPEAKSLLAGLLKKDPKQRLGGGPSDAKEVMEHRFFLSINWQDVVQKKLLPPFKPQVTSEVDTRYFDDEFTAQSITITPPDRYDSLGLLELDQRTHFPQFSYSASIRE

Set 1
Target: Histone acetyltransferase KAT6A, winged helix 1, GST fusion (KAT6A, Homo sapiens, UniProt Q92794, residues 1-85)
Technique: protein binding microarray
Molecule type: double-stranded DNA, one strand shown
Matrix: in vitro
Tested at: not given
Notes: 8-mer, flanks averaged, mean of 2 arrays, mostly near background
Baseline: not given
Reading: higher = stronger binding
Construct (chain): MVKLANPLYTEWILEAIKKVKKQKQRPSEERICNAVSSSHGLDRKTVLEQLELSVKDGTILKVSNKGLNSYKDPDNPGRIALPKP
Sequence	E-score
CCAGGAAA	-0.148
ACGGCCGG	0.43
GTGGGTGA	-0.000505
ATTAAGAC	-0.219
GATAGCCA	-0.0843
GACGCTTA	0.068
GCACTCCA	-0.0336
ATCGTTAA	-0.0475

Set 2
Molecule: PhoQ, residues 284 288 289 292 302 303 GLASVI
Technique: Sort-seq
Measured: YFP reporter
Matrix: E. coli
Notes: PhoQ-PhoP variant library
With: 10 µM Mg2+
Baseline: high Mg2+ state
Reading: higher = stronger signaling
target	fold induction
PhoP, residues 12 14 15 18 19 QYFSL (Escherichia coli, UniProt P23836)	2.82
PhoP, residues 12 14 15 18 19 NYFRM (Escherichia coli, UniProt P23836)	9.23
PhoP, residues 12 14 15 18 19 TQALL (Escherichia coli, UniProt P23836)	6.61

Set 3
SMILES: CNc1cc2c(Nc3cccc(Br)c3)ncnc2cn1
Observed: enzyme activity
Action: inhibitor
Tested at: 0.5 µM
Baseline: control
target	remaining activity
AKT2 (Homo sapiens, UniProt P31751)	99.6%
MARK4 (Homo sapiens, UniProt Q96L34)	84.5%
Cyclin-dependent kinase 1, with cyclin A (CDK1, Homo sapiens, UniProt P06493)	86.5%
MARK2 (Homo sapiens, UniProt Q7KZI7)	90.9%
CAMK4 (Homo sapiens, UniProt Q16566)	104%
PAK3 (Homo sapiens, UniProt O75914)	98.8%
ROCK1 (Homo sapiens, UniProt Q13464)	98.8%
MAPK14 (Homo sapiens, UniProt Q16539)	90%
DDR2 (Homo sapiens, UniProt Q16832)	100%
TXK (Homo sapiens, UniProt P42681)	79.9%
DCLK2 (Homo sapiens, UniProt Q8N568)	90.4%
RPS6KA4 (Homo sapiens, UniProt O75676)	109%
MET (Homo sapiens, UniProt P08581)	106%

Set 4
Structure (SMILES): CCC(=O)N[C@@H]1CC[C@H](C(=O)N(C)c2ccc(-c3nc4ccccc4o3)cc2)C1
Observed: cell-free assay
Technique: competition with immobilised ligand
Tested at: 1 µM
target	remaining binding
Myosin-IIIa (MYO3A, Homo sapiens, UniProt Q8NEV4)	100%
PRKD1 (Homo sapiens, UniProt Q15139)	98%
PIK3CA (Homo sapiens, UniProt P42336, I800L)	100%

Other studies, line by line
Molecule	partner	test	setting	measurement	result
PDCD11 (Homo sapiens, UniProt Q14690)	DDX56 (Homo sapiens, UniProt Q9NY93)	cross-linking MS	hits only	interaction screen	cross-linked

For quick reference, copied from above (set 3):
target	remaining activity
ROCK1 (Homo sapiens, UniProt Q13464)	98.8%
RPS6KA4 (Homo sapiens, UniProt O75676)	109%
TXK (Homo sapiens, UniProt P42681)	79.9%
MARK4 (Homo sapiens, UniProt Q96L34)	84.5%
